Results gathered from unrelated publications.
Numbered parts are unrelated; each lists some results of a single study. Several values in a cell are separate wells, animals, samples, runs or records.
UniProt Q9Y5N1, sequence (whole entry, looked up): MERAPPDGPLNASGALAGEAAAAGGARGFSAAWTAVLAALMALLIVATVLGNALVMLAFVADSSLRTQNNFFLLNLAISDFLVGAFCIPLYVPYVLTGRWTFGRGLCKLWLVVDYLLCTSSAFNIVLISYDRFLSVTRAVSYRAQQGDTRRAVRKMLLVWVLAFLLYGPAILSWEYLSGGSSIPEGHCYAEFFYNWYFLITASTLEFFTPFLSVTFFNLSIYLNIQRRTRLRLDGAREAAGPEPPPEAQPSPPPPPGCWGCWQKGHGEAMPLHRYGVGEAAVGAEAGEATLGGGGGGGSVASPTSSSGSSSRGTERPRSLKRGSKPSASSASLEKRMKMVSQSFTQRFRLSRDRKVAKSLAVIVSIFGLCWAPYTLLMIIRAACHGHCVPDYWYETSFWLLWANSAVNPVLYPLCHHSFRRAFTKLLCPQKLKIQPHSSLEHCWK
UniProt Q5BJF2, sequence (whole entry, looked up): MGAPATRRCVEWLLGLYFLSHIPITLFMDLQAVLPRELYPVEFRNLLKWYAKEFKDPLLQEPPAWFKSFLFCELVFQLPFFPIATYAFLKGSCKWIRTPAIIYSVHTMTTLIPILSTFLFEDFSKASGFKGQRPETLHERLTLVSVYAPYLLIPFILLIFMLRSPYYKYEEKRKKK
UniProt P08588, sequence (whole entry, looked up): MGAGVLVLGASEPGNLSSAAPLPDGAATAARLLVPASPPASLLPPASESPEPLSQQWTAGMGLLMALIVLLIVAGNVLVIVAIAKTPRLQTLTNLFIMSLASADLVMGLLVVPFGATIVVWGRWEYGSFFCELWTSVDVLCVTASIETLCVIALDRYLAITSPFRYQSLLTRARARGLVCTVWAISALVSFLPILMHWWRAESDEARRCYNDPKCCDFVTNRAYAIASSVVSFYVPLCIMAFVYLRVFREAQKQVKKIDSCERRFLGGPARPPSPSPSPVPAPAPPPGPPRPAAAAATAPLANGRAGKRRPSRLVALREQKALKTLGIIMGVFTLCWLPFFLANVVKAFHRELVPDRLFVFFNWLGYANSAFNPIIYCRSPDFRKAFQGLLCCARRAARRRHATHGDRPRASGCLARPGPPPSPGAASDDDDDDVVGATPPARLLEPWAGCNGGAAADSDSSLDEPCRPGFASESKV
UniProt P34969, sequence (whole entry, looked up): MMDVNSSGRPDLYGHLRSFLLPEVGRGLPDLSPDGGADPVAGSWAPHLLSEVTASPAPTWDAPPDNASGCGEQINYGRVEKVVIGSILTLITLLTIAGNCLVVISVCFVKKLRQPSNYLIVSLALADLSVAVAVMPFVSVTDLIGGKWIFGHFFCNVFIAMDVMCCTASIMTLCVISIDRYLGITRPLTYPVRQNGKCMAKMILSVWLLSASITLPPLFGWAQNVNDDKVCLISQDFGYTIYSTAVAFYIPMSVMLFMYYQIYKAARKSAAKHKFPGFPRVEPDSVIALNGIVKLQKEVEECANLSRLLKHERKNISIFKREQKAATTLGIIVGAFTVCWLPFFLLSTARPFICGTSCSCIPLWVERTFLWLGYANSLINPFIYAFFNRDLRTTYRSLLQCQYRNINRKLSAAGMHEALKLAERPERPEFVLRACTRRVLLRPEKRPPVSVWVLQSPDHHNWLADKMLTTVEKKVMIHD
UniProt P25100, sequence (whole entry, looked up): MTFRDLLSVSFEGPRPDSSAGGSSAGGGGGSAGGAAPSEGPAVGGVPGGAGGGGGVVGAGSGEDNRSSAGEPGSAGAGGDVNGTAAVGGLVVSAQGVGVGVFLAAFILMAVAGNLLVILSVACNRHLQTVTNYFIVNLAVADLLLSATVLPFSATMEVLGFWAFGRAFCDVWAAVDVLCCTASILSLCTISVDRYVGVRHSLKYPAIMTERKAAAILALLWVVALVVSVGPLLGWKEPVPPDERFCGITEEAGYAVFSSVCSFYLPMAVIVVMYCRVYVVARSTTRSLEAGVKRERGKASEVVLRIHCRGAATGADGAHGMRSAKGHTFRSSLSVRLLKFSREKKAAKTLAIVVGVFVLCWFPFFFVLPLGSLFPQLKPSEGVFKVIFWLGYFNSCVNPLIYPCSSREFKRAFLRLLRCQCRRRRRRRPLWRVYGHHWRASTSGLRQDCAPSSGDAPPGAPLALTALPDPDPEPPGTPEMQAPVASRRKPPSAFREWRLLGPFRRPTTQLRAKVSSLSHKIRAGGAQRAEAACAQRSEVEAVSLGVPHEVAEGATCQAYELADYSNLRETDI
UniProt Q9H3N8, sequence (whole entry, looked up): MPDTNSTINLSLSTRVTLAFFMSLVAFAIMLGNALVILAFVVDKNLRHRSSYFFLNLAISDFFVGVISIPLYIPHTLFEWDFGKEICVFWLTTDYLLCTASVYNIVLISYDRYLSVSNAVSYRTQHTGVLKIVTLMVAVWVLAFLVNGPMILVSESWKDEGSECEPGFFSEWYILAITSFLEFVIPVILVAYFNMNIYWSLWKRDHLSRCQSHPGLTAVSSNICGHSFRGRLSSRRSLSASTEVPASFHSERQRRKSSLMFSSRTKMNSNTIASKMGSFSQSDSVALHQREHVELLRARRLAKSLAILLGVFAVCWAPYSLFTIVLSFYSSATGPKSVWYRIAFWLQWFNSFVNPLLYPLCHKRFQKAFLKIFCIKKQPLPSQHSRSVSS
UniProt P13945, sequence (whole entry, looked up): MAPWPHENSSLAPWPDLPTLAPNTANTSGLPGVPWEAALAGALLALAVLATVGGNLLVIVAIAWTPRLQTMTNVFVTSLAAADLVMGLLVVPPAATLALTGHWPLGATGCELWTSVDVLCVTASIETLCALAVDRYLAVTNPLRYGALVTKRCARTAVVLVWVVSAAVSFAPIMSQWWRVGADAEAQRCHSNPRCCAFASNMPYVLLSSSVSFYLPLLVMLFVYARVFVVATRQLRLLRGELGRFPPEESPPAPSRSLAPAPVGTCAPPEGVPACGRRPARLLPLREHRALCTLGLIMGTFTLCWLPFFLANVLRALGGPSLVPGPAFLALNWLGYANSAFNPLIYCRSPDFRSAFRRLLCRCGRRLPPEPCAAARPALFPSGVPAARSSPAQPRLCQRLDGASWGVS

Sample 1
Target: Tyrosine-protein kinase Lyn (LYN, Homo sapiens, UniProt P07948)
UniProt P07948, sequence (whole entry, looked up): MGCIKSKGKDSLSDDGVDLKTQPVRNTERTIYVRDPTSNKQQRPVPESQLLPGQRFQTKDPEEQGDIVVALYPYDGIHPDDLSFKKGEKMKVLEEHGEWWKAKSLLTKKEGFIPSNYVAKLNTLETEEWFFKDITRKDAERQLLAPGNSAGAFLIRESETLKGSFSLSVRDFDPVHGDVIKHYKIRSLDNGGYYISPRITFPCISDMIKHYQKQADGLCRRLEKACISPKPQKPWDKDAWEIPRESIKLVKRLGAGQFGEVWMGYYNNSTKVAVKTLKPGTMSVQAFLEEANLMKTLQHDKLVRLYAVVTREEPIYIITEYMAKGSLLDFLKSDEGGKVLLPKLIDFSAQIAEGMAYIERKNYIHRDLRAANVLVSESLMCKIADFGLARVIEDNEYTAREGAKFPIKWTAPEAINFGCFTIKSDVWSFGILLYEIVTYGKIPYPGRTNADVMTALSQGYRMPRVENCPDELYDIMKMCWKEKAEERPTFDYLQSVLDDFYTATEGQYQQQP
Observed: enzyme activity
Mode: inhibitor
Concentration: 0.5 µM
Relative to: control
`O=C(Nc1cccc(Nc2cc(Nc3cccc(C(F)(F)F)c3)ncn2)c1)C1CC1` has a remaining activity of 102%.
With `COc1cc2nccc(Oc3ccc(NC(=S)NC(=O)c4ccccc4C)cc3)c2cc1OC` the remaining activity was 16.9%.
With `OCC(O)CCON=C1C(c2c(O)[nH]c3ccccc23)=Nc2ccccc21` (stereo not shown) the remaining activity was 25.4%.
With `Oc1ccc(-c2nc(-c3ccncc3)c(-c3ccc(F)cc3)[nH]2)cc1` the remaining activity was 94.8%.
The remaining activity of `CO[C@H]1C[C@@H]2CC[C@@H](C)[C@@](O)(O2)C(=O)C(=O)N2CCCC[C@H]2C(=O)O[C@H]([C@H](C)C[C@@H]2CC[C@@H](O)[C@H](OC)C2)CC(=O)[C@H](C)/C=C(\C)[C@@H](O)[C@@H](OC)C(=O)[C@H](C)C[C@H](C)/C=C/C=C/C=C/1C` is reported as 100%.
For `Nc1ncnc2n[nH]c(Nc3ccc(F)cc3)c12`, the remaining activity was 89.7%.
`CNC(=O)c1cc(Oc2ccc(NC(=O)Nc3ccc(Cl)c(C(F)(F)F)c3)cc2)ccn1` has a remaining activity of 88.1%.
For `CCOC(=O)c1c(C)[nH]c(/C=C2\C(=O)Nc3ccccc32)c1C`, the remaining activity was 84.1%.
`COc1ccc(OC)c2c(=S)c3ccccc3[nH]c12` has a remaining activity of 106%.
`N#CC(C#N)=C(N)/C(C#N)=C/c1ccc(O)cc1` has a remaining activity of 92.2%.
The remaining activity of `CC(C)[C@H](CO)Nc1nc(Nc2cc(N)cc(Cl)c2)c2ncn(C(C)C)c2n1` is reported as 23.1%.
With `O=C(O)c1ccc2c3c1cccc3c(=O)n1c3ccccc3nc21` the remaining activity was 101%.
The remaining activity of `COc1cc2ncnc(Nc3ccc(F)c(Cl)c3)c2cc1OCCCN1CCOCC1` is reported as 57.1%.
The remaining activity of `Cc1ccc(NC(=O)c2ccc(CN3CCN(C)CC3)cc2)cc1Nc1nc(-c2cccnc2)cs1` is reported as 16.2%.
The remaining activity of `COc1cc2ncnc(Nc3ccc(Oc4ccccc4)cc3)c2cc1OC` is reported as 21.6%.

Sample 2
Organism: Sarcocystis neurona
Observed: parasite growth
Concentration: 10 µM
Notes: secondary screen
With `CC(C)(C(=O)O)c1ccc(C(O)CCCN2CCC(C(O)(c3ccccc3)c3ccccc3)CC2)cc1` (stereo not shown) the inhibition was -34%.
`CC(=O)/N=c1/sc(S(N)(=O)=O)nn1C` gave an inhibition of -35%.
`O=C(O)c1cc(=O)c2c(OCC(O)COc3cccc4oc(C(=O)O)cc(=O)c34)cccc2o1` gave an inhibition of -30.8%.
`CCOC(=O)CCC(=O)O[C@H]1[C@H](O[C@@H]2[C@@H](C)[C@H](O[C@H]3C[C@@](C)(OC)[C@@H](O)[C@H](C)O3)[C@@H](C)C(=O)O[C@H](CC)[C@@](C)(O)[C@H](O)[C@@H](C)C(=O)[C@H](C)C[C@@]2(C)O)O[C@H](C)C[C@@H]1N(C)C` gave an inhibition of 19.7%.
`Cl.NC1CCN(c2cccc(Cl)n2)CC1` gave an inhibition of -23%.
For `C[C@]12CCC(=O)C=C1CC[C@@H]1[C@@H]2C(=O)C[C@@]2(C)[C@H]1CC[C@]2(O)C(=O)CO`, the inhibition was 3.6%.
With `CCc1cccc2c3c([nH]c12)C(CC)(CC(=O)O)OCC3` (stereo not shown) the inhibition was -43%.
The inhibition of `C[C@H]1O[C@H](O[C@H]2[C@H](O)[C@@H](O)[C@@H](O[C@H]3[C@H](O)[C@@H](O)C(O)O[C@@H]3CO)O[C@@H]2CO)[C@H](O)[C@@H](O)[C@@H]1N[C@H]1C=C(CO)[C@@H](O)[C@H](O)[C@H]1O` (stereo partly shown) is reported as -24.4%.

Sample 3
Structure (SMILES): C[C@@H](NC(=O)Nc1cc2[nH]ncc2c(CO)n1)c1ccccc1
Observed: cell-free assay
Concentration: 10 µM
It gave 6.72% for inhibition (ADRB1 (Homo sapiens, UniProt P08588)).
For ADRA1D (Homo sapiens, UniProt P25100): inhibition read -15.1%.
For HRH4 (Homo sapiens, UniProt Q9H3N8): inhibition read 35.3%.
HTR7 (Homo sapiens, UniProt P34969) — inhibition: 21.7%.
TMEM97 (Homo sapiens, UniProt Q5BJF2) — inhibition: -10.1%.
For HRH3 (Homo sapiens, UniProt Q9Y5N1): inhibition read 7.46%.
ADRB3 (Homo sapiens, UniProt P13945) — inhibition: 24.1%.

Single results of other studies
For `CN(N=O)C(=O)N[C@@H]1[C@@H](O)[C@H](O)[C@@H](CO)O[C@@H]1O`, the blood glucose was 525 mg/dL and 489 mg/dL and 496 mg/dL and 505 mg/dL and 600 mg/dL (mice, STZ diabetic neuropathy; dose not given, 28 days after STZ).

Excerpt of the above (sample 1):
The remaining activity of `CO[C@H]1C[C@@H]2CC[C@@H](C)[C@@](O)(O2)C(=O)C(=O)N2CCCC[C@H]2C(=O)O[C@H]([C@H](C)C[C@@H]2CC[C@@H](O)[C@H](OC)C2)CC(=O)[C@H](C)/C=C(\C)[C@@H](O)[C@@H](OC)C(=O)[C@H](C)C[C@H](C)/C=C/C=C/C=C/1C` is reported as 100%.
With `COc1cc2nccc(Oc3ccc(NC(=S)NC(=O)c4ccccc4C)cc3)c2cc1OC` the remaining activity was 16.9%.
`CNC(=O)c1cc(Oc2ccc(NC(=O)Nc3ccc(Cl)c(C(F)(F)F)c3)cc2)ccn1` has a remaining activity of 88.1%.
For `Nc1ncnc2n[nH]c(Nc3ccc(F)cc3)c12`, the remaining activity was 89.7%.
`O=C(Nc1cccc(Nc2cc(Nc3cccc(C(F)(F)F)c3)ncn2)c1)C1CC1` has a remaining activity of 102%.
